Measured values collected from several papers.
Every numbered part comes from another study and shows a few of its results, in no order. Changes are numbered by the printed parent chain.

Set 1 — target: UBE2M UBC core domain (UniProt P61081); method: yeast two-hybrid; medium: yeast; notes: mostly zero background; baseline: not given; reading: higher = stronger interaction
Sequence of UniProt P61081 (whole entry, looked up): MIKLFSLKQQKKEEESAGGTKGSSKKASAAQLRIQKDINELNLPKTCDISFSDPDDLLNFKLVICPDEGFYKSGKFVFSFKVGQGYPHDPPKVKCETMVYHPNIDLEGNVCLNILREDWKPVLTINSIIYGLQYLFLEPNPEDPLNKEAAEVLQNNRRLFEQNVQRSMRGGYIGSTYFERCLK
B1: ARIH1 RING domain (UniProt Q9Y4X5); chain NTRSSAQDMPCQICYLNYPNSYFTGLECGHKFCMQCWSEYLTTKIMEEGMGQTISCPAHGCDILVDDNTVM
B2: RNF32 RING domain (UniProt Q9H0A6); chain VQALRRETHECSICLAPLSAAGGQRVGAGRRSREMALLSCSHVFHHACLLALEEFSVGDRPPFHACPLCRSCYQKKILEC
B3: RNF115 RING domain (UniProt Q9Y4L5); chain TQEQVDMGLECPVCKEDYTVEEEVRQLPCNHFFHSSCIVPWLELHDTCPVCRKSLNGEDSTR
B4: RNF7 RING domain (UniProt Q9UBF6); chain AICRVQVMDACLRCQAENKQEDCVVVWGECNHSFHNCCMSLWVKQNNRCPLCQQDWVVQRIGK
B5: TRIM47 RING domain (UniProt Q96LD4); chain MDGSGPFSCPICLEPLREPVTLPCGHNFCLACLGALWPHRGASGAGGPGGAARCPLCQEPFPDGLQLR
B6: TRIM34 RING domain (UniProt Q9BYJ4); chain ILLNVQEEVTCPICLELLTEPLSLDCGHSLCRACITVSNKEAVTSMGGKSSCPVCGISYSFEHLQA
B7: RNF130 RING domain (UniProt Q86XS8); chain DKETDPDFDHCAVCIESYKQNDVVRILPCKHVFHKSCVDPWLSEHCTCPMCKLNILKALGIV
B8: MARCHF2 RING domain (UniProt Q9P0N8); chain RLLSTVIRALDTPSDGPFCRICHEGANGECLLSPCGCTGTLGAVHKSCLEKWLSSSNTSYCELCHTEFAVEKRPRPLTEWL
B9: NHLRC1 RING domain (UniProt Q6VVB1); chain MREAEISLLECKVCFEKFGHRQQRRPRNLSCGHVVCLACVAALAHPRTLALECPFCRRACRGCDTSD
B10: RNF17 RING domain (UniProt Q9BXT8); chain SQPWGAAEIQCTRCGRRVSRSSGHHCELQCGHAFCELCLLMTEECTTIICPDCEVATAVNTRQR
B11: PJA2 RING domain (UniProt O43164); chain DHTAIGQEQCCPICCSEYIKDDIATELPCHHFFHKPCVSIWLQKSGTCPVCRRHFPPAVIEA
Sequence | lacZ reporter activity
B1 (ARIH1 RING domain) | 0
B2 (RNF32 RING domain) | 0
GSEEEEIPFRCFICRQAFQNPVVTKCRHYFCESCALEHFRATPRCYICDQPTGGIFNPA (RNF113B RING domain (UniProt Q8IZP6)) | 0
B3 (RNF115 RING domain) | 0
B4 (RNF7 RING domain) | 0
B5 (TRIM47 RING domain) | 0
B6 (TRIM34 RING domain) | 0
AAQLLEEKLTCAICLGLYQDPVTLPCGHNFCGACIRDWWDRCGKACPECREPFPDGAELR (TRIM65 RING domain (UniProt Q6PJ69)) | 0
B7 (RNF130 RING domain) | 0
B8 (MARCHF2 RING domain) | 0
B9 (NHLRC1 RING domain) | 0
B10 (RNF17 RING domain) | 0
VPADASPDSKCPICLDRFDNVSYLDRCLHKFCFRCVQEWSKNKAECPLCKQPFDSIFHSV (TOPORS RING domain (UniProt Q9NS56)) | 0
B11 (PJA2 RING domain) | 0
MEEMEEELKCPVCGSFYREPIILPCSHNLCQACARNILVQTPESESPQSHRAAGSGVSDY (TRIM9 RING domain (UniProt Q9C026)) | 0

Set 2 — method: DHFR PCA, deep sequencing; medium: yeast; together with: (+)-ABA 0.0091 µM; baseline: wild-type fitted maximum; reading: higher = stronger binding
Target: ABI1, truncated, D143A, DHFR fusion (Arabidopsis thaliana)
Notes: methotrexate growth selection, single substitutions
Parent: PYL1, truncated, DHFR fusion (Arabidopsis thaliana); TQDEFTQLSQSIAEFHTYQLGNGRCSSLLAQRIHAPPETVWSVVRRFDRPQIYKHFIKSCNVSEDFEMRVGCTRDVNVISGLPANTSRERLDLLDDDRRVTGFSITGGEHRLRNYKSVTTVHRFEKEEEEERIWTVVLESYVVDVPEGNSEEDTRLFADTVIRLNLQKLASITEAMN
Variant | relative binding score [%]
I12G | -4.59
T17Q | 15.2
S80T | 41.2
V118D | -0.0312
V118G | -2.74
N149V | 56.4
E130T | 35.2
W41P | 9.84
A170N | -8.64
Q51E | 19.8
R88F | 10.5
H16T | -4.13
F66A | 4.19
G107Y | -5.31
R45K | -0.137
V143Q | -1.85
E109Y | -6.66
E125M | 22.6
A84V | 24.9
L112A | 24.7
R49T | 8.77
R74N | -0.318
E128V | 7.61
Y115A | 5.99
V161M | 67.2

Set 3 — method: aptamer microarray, sandwich; molecule type: DNA with 2'F-ANA; medium: in vitro; concentration: 200 nM; together with: Cy3 exosite-II aptamer, 400 nM; reading: higher = stronger binding; sequence: GGTTGGTGTGGTTGG
Target: Prothrombin, mature alpha-thrombin (F2, Homo sapiens, UniProt P00734)
Notes: whole 15-mer aptamer, many near background
Modification | mean fluorescence intensity [a.u.]
2'F-ANA at 1 4 7 14 | 67.5
2'F-ANA at 7 9 11 12 13 15 | 650
2'F-ANA at 3 5 7 9 12 13 14 | 64.7
2'F-ANA at 1 2 3 4 10 11 12 15 | 72
2'F-ANA at 1 2 4 6 8 9 13 14 | 49.4
2'F-ANA at 1 8 9 11 12 14 15 | 71
2'F-ANA at 2 4 6 7 9 14 15 | 76.3
2'F-ANA at 4 5 6 7 8 10 11 12 | 62.5
2'F-ANA at 2 4 6 8 9 10 12 13 14 | 72.3
2'F-ANA at 1 5 6 8 9 11 12 13 14 15 | 49.9
2'F-ANA at 1 2 5 8 10 12 14 | 65
2'F-ANA at 2 3 7 8 11 12 | 1040
2'F-ANA at 5 6 7 9 10 12 13 14 15 | 47
2'F-ANA at 6 8 9 10 11 15 | 128
2'F-ANA at 1 3 5 9 13 | 48.8
2'F-ANA at 1 2 3 4 5 6 7 9 14 | 48.4
2'F-ANA at 3 6 8 11 12 | 1170
2'F-ANA at 1 3 4 5 6 7 8 9 10 11 12 13 15 | 55.5
2'F-ANA at 1 2 3 9 14 | 81.5
2'F-ANA at 1 7 10 11 14 | 46.9
2'F-ANA at 4 7 8 9 10 11 14 | 60.9
2'F-ANA at 2 4 5 6 8 9 10 11 13 15 | 53
2'F-ANA at 6 8 11 12 13 | 631
2'F-ANA at 1 2 3 4 6 12 14 | 70.8
2'F-ANA at 1 3 5 6 9 12 15 | 119

Set 4 — method: universal PBM; molecule type: double-stranded DNA, one strand shown; medium: in vitro; concentration: not given; reading: higher = stronger binding
Target: Sal-like protein 4, full length isoform B (SALL4, Homo sapiens, UniProt Q9UJQ4-2, residues 1-616)
Notes: 8-mer, flanks averaged, mean of replicates
Construct (chain): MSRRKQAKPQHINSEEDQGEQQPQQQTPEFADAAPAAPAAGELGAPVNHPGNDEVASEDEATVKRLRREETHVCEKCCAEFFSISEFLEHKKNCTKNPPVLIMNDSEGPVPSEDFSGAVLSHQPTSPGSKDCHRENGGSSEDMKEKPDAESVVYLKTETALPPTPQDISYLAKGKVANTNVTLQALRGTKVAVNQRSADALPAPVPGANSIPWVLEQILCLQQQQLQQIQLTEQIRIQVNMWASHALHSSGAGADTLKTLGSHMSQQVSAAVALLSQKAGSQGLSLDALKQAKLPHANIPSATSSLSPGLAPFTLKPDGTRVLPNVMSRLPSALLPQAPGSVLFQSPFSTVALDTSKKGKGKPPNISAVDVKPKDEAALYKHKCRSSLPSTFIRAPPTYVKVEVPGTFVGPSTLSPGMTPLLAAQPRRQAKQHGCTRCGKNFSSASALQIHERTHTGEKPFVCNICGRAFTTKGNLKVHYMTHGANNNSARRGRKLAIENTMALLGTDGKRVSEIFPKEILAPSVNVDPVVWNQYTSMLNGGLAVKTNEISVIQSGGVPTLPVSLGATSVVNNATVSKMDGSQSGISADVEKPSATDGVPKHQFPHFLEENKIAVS
Sequence | E-score
CTGTATAC | 0.232
TGGAGAAA | -0.00611
CACCTAAG | -0.0832
ATGACCAT | 0.138
AGCCACCG | -0.235
AGCCGGTG | -0.333
TGGCACCA | -0.214
CAGTAGAG | -0.142
CCTCGCAA | -0.115
AGTCATAC | 0.14
GGAAAAGA | 0.0425
GCGCAGAA | -0.186
GGAATAGA | 0.105
CCACGATC | 0.126
ATCGCAGA | 0.00953
TCAGTCAA | -0.00921
CCGAGCGC | -0.264
TGACCCCA | -0.194
AAGATGGA | 0.0335
CTGTCTCC | -0.248
AAGACTGC | -0.162
AGGGTGAC | -0.0654

Set 5 — method: protein binding microarray; molecule type: double-stranded DNA, one strand shown; medium: in vitro; concentration: not given; baseline: not given; reading: higher = stronger binding
Target: Histone acetyltransferase KAT6A, winged helix 1, GST fusion (KAT6A, Homo sapiens, UniProt Q92794, residues 1-85)
Notes: 8-mer, flanks averaged, mean of 2 arrays, mostly near background
Target sequence (chain): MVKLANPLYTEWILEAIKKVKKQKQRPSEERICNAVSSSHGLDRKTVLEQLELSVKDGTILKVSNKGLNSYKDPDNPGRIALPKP
Sequence | E-score
CTTCCCTA | -0.0771
AATATTCG | -0.113
CGACCCAG | 0.0303
ATTTCCTG | -0.128
AATATGAG | -0.182
CTAAAGCC | -0.0502
CCAAATCC | -0.174
AGTGCTAT | -0.243
ACAGTCGC | 0.0673
ACAACAAG | -0.103
ATGTACAG | -0.167
GAGACTTA | -0.177
GGTGGTAA | -0.0817
AATCTAGA | -0.133
GAGGGGGC | -0.0865
ACGCCTCA | -0.0193
ATCAGGCG | -0.00526
AACCATTC | -0.0529
CGCATCCA | 0.272
ACAGATAG | -0.239
AGGCAATA | -0.093
ATATCCCG | 0.197
CTGCGCCA | 0.0658
GAATAAAC | -0.0246
AAACGATT | -0.144

Set 6 — method: protein-binding microarray; molecule type: double-stranded DNA, one strand shown; medium: in vitro; concentration: not given; reading: higher = stronger binding
Target: Protein C-ets-1 (ETS1, Homo sapiens, UniProt P14921, residues 1-441, K379A, full length assumed)
Sequence of UniProt P14921 (whole entry, unmodified, looked up): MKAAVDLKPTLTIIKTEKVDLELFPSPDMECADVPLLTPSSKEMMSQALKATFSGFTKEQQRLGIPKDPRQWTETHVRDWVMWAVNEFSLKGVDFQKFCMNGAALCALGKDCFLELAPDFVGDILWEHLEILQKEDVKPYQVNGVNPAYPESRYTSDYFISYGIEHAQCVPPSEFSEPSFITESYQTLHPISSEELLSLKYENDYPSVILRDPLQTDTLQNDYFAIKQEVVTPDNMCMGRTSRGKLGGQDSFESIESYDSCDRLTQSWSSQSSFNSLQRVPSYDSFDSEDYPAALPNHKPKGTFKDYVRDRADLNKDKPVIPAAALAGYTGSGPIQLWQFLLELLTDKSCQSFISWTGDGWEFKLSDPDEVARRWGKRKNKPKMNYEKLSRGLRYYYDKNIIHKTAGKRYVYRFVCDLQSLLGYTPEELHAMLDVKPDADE
Notes: k-mer, scored over probes, only values ≥0.25
Sequence | E-score
ACCGACAA | 0.431
ATGACCGG | 0.328
ATTGTTCA | 0.298
ACCGGATA | 0.438
CAACCGGG | 0.361
GTAATTAC | 0.3
ACGGCCGG | 0.273
GGTGTATA | 0.263
ACCGGTGC | 0.456
CGGAACGC | 0.292
AAAGACAA | 0.256
AACATGTC | 0.274
TCCCGGAA | 0.364
ATATATGA | 0.253
CGGTGACC | 0.262
GTACCGGA | 0.419
CGGGCGGA | 0.265
ACAACCGG | 0.349
TACCGCCA | 0.304
CCGGATAG | 0.255
CGGCGTCC | 0.268
CGGATGTA | 0.318
ATCCCGGG | 0.279
CATTAAAC | 0.267
CGGTTTGC | 0.318

Excerpt of the above (set 2):
Variant | relative binding score [%]
S80T | 41.2
V118D | -0.0312
V118G | -2.74
N149V | 56.4
E130T | 35.2
W41P | 9.84
A170N | -8.64
Q51E | 19.8
R88F | 10.5
H16T | -4.13
F66A | 4.19
G107Y | -5.31
R45K | -0.137
V143Q | -1.85
E109Y | -6.66
